Published values gathered from unrelated publications.
Target: Histone deacetylase 1 (HDAC1, Homo sapiens, UniProt Q13547)
Chain of UniProt Q13547 (whole entry, looked up): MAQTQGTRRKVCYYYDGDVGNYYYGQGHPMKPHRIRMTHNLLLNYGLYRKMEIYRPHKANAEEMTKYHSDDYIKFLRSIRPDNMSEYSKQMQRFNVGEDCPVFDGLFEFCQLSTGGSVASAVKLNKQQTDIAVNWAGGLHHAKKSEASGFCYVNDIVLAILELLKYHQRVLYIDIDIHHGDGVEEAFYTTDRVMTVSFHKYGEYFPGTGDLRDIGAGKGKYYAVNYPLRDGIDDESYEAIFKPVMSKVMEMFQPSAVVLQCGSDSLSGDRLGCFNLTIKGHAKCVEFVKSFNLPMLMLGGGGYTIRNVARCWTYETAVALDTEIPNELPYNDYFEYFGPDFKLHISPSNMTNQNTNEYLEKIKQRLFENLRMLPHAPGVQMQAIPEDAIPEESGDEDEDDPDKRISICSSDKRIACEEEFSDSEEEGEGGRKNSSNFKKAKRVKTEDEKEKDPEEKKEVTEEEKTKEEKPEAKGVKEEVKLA

SMILES = COC(=O)c1ccc2c(c1)nc(NC(=O)c1ccccc1)n2CCCc1ccccc1; effect on = enzyme activity; mode = inhibitor; tested at = 10 µM; quantity = remaining activity; value = 86%
SMILES = Cc1cc(C(C)(C)C)ccc1OS(=O)(=O)Oc1cncc(C(=O)NO)c1; effect on = enzyme activity; mode = inhibitor; technique = fluorescence; tested at = 10 µM; quantity = inhibition; value = 41%
SMILES = Cc1c(COc2cc(OCc3cccc(C#N)c3)c(CNCCO)cc2Cl)cccc1-c1cccc(OCCCCCCC(=O)NO)c1; effect on = enzyme activity; mode = inhibitor; tested at = 1 µM; quantity = inhibition; value = 83.9%
SMILES = CC(C)(C)c1ccccc1OS(=O)(=O)Oc1cccc(C(=O)NO)c1; effect on = enzyme activity; mode = inhibitor; technique = fluorescence; tested at = 10 µM; quantity = inhibition; value = 18%
SMILES = C=CC[C@@H]1NC(=O)CCSCc2ccc(cc2)CSCCCNC(=O)[C@H](CCCCCC(=O)N(O)CCCCCC)NC1=O; effect on = enzyme activity; mode = inhibitor; technique = fluorogenic; tested at = 30 µM; quantity = inhibition; value = 60%
SMILES = Cc1c(COc2cc(OCc3cccc(C#N)c3)c(CNC(C)(CO)CO)cc2Cl)cccc1-c1cccc(OCCCCCCC(=O)NO)c1; effect on = enzyme activity; mode = inhibitor; tested at = 1 µM; quantity = inhibition; value = 78.6%
SMILES = C=CC[C@@H]1NC(=O)CCSCc2ccc(cc2)CSC/C=C/CNC(=O)[C@H](CCCCCC(=O)N(O)CCCCCC)NC1=O; effect on = enzyme activity; mode = inhibitor; technique = fluorogenic; tested at = 30 µM; quantity = inhibition; value = 30%
SMILES = C[S@@](=N)(=O)c1ccc(C(=O)Nc2cc(-c3ccc(F)cc3)ccc2N)cc1; technique = NanoBRET target engagement; reference = HDAC3 over HDAC1; quantity = selectivity ratio; value = 10 fold
SMILES = O=C(NO)c1cccc(OS(=O)(=O)Oc2ccccc2)c1; effect on = enzyme activity; mode = inhibitor; technique = fluorescence; tested at = 10 µM; quantity = inhibition; value = 52%
SMILES = CC(=O)NCCNCc1cc(Cl)c(OCc2cccc(-c3cccc(OCCCCCCC(=O)NO)c3)c2C)cc1OCc1cccc(C#N)c1; effect on = enzyme activity; mode = inhibitor; tested at = 1 µM; quantity = inhibition; value = 69.4%
SMILES = CCCCCCN(O)C(=O)CCCCC[C@@H]1NC(=O)[C@H]([C@@H](C)CC)NC(=O)[C@H](Cc2ccccc2C(F)(F)F)NC(=O)CCSCc2cccc(n2)CSCCCNC1=O; effect on = enzyme activity; mode = inhibitor; technique = fluorogenic; tested at = 30 µM; quantity = inhibition; value = 55%
SMILES = O=C(NO)c1cc(F)cc(OS(=O)(=O)Oc2ccccc2-c2ccccc2)c1; effect on = enzyme activity; mode = inhibitor; technique = fluorescence; tested at = 10 µM; quantity = inhibition; value = 11%
SMILES = Cc1c(COc2cc(OCc3cccc(C#N)c3)c(CN3CCCC[C@H]3C(=O)O)cc2Cl)cccc1-c1cccc(OCc2ccc(C(=O)NO)cc2)c1; effect on = enzyme activity; mode = inhibitor; tested at = 1 µM; quantity = inhibition; value = 40.3%

A few entries again:
SMILES = Cc1c(COc2cc(OCc3cccc(C#N)c3)c(CNCCO)cc2Cl)cccc1-c1cccc(OCCCCCCC(=O)NO)c1; effect on = enzyme activity; mode = inhibitor; tested at = 1 µM; quantity = inhibition; value = 83.9%
